# Measured values pooled from the literature.
# Cell line: HeLa
SMILES,observed,technique,time,together with,IC50 [µM]
C=C1C(=O)O[C@H]2[C@H]1[C@H](OC(=O)[C@@]1(C)O[C@H]1C)[C@@H](OC(C)=O)/C(C(=O)OC)=C\CC[C@@]1(C)O[C@H]21,cell growth or viability,,24 h,,13.6
COc1cccc(NC(=O)Cn2cc(COc3ncnc4[nH]cnc34)nn2)c1,cell growth or viability,MTT,,,> 100
CC(=O)O[C@H]1C(=O)[C@@]2(C)[C@H]([C@H](OC(=O)c3ccccc3)[C@]3(O)C[C@H](OC(=O)[C@H](O)[C@@H](NC(=O)c4ccccc4)c4ccccc4)C(C)=C1C3(C)C)[C@]1(OC(C)=O)CO[C@@H]1C[C@@H]2O,cell growth or viability,,24 h,,0.055
CC(=NN=C(N)[S-])C(C)=NN=C(N)[S-].NCc1ccccc1.NCc1ccccc1.O=[N+]([O-])[O-].[Co+3],cell growth or viability,MTT,,,> 500
O=C1c2c(O)cc(O)cc2OC(c2ccc(O)c(O)c2)C1O (stereo not shown),cell growth or viability,MTT,72 h,,195
CCC(O)CC(=O)O[C@@H]1C[C@@H]2[C@@]3(C)CCC[C@](C)(CC)[C@@H]3CC[C@@]2(C)[C@@H]2C[C@@H](O)C3=C(C(=O)O[C@@H]3C)[C@@]12C (stereo partly shown),cell growth or viability,CCK-8,24 h,,≤ 25
O=c1[nH]cc(F)c(=O)[nH]1,cell growth or viability,,96 h,,0.54
C=C1C(=O)O[C@H]2[C@H]1CC/C(C)=C/CC[C@@]1(C)O[C@@H]21,cell growth or viability,,48 h,,16.6
O=C(Cn1cc(COc2ncnc3[nH]cnc23)nn1)NCc1ccc(Cl)cc1,cell growth or viability,MTT,,,> 100
COc1cccc2c1C(=O)c1c(O)c3c(c(O)c1C2=O)C[C@@](O)(C(=O)CO)C[C@@H]3O[C@H]1C[C@H](N)[C@H](O)[C@H](C)O1,cell growth or viability,MTT,72 h,,0.12
O=C1NCCc2c(OCCCCN3CCCCC3)cccc21,H1R promoter reporter gene,,,PMA 100 nM for 10 h,59
C=C1C(=O)O[C@@H]2/C=C(\C)CC/C=C(/C(=O)OC)[C@H](OC(C)=O)[C@@H](OC(=O)[C@]3(C)O[C@@H]3C)[C@@H]12,cell growth or viability,,24 h,,12.7
O=c1c(O)c(-c2ccc(O)c(O)c2)oc2cc(O)ccc12,cell growth or viability,MTT,72 h,,60.5
CC(=NNC(N)=S)C(C)=NNC(N)=S,cell growth or viability,MTT,,,> 20
COc1cc([C@@H]2c3cc4c(cc3[C@@H](O[C@@H]3O[C@@H]5CO[C@@H](C)O[C@H]5[C@H](O)[C@H]3O)[C@H]3COC(=O)[C@H]23)OCO4)cc(OC)c1O,cell growth or viability,,24 h,,12.5
CC(C=NN=C(N)[S-])=NN=C(N)[S-].NCc1ccccc1.NCc1ccccc1.O=[N+]([O-])[O-].[Co+3],cell growth or viability,MTT,,,~8.6
O=C1c2ccc(O)cc2O[C@H](c2ccc(O)c(O)c2)[C@H]1O,cell growth or viability,MTT,72 h,,> 400
CO[C@@]12[C@H](COC(N)=O)C3=C(C(=O)C(C)=C(N)C3=O)N1C[C@@H]1N[C@@H]12,cell growth or viability,,24 h,,2.41
O=C(Cn1cc(COc2ncnc3[nH]cnc23)nn1)Nc1ccc(F)c(Cl)c1,cell growth or viability,MTT,,,8.85

# Some of these lines once more:
SMILES,observed,technique,time,together with,IC50 [µM]
C=C1C(=O)O[C@@H]2/C=C(\C)CC/C=C(/C(=O)OC)[C@H](OC(C)=O)[C@@H](OC(=O)[C@]3(C)O[C@@H]3C)[C@@H]12,cell growth or viability,,24 h,,12.7
CC(=NN=C(N)[S-])C(C)=NN=C(N)[S-].NCc1ccccc1.NCc1ccccc1.O=[N+]([O-])[O-].[Co+3],cell growth or viability,MTT,,,> 500
